Experimental data collected from several papers.
Parts stem from different laboratories: compare values within a part only. Positions count from the first letter of the parent shown.
Chain of UniProt P07949 (whole entry, looked up): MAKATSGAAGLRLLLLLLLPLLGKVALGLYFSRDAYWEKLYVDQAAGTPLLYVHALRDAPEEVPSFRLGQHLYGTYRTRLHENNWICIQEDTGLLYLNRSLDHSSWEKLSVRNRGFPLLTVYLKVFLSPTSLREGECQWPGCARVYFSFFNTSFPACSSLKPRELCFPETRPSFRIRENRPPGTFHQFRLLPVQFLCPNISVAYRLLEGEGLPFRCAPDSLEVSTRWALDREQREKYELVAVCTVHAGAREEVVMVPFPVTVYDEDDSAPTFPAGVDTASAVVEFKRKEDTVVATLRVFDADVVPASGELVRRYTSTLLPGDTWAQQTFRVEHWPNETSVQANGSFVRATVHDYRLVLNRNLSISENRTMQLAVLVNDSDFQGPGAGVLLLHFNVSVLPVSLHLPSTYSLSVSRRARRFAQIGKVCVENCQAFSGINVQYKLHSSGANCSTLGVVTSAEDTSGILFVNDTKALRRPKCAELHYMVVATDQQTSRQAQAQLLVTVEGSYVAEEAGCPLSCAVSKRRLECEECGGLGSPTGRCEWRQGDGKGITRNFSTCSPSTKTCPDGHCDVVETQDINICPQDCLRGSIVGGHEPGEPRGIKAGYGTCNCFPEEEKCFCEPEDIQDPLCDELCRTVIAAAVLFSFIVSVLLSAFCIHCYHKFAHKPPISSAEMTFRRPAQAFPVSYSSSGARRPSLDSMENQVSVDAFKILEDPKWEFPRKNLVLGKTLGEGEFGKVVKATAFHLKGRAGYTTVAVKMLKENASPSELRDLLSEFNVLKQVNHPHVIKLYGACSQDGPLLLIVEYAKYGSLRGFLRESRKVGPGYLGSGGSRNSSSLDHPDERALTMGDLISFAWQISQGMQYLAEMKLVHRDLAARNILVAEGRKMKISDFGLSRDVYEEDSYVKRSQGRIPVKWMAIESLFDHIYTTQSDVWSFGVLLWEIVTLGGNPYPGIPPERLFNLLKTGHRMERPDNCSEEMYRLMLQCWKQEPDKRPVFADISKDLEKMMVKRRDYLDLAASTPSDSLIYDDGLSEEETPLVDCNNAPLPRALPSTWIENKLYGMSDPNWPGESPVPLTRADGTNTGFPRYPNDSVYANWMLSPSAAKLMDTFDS
Chain of UniProt Q8TDC3 (whole entry, looked up): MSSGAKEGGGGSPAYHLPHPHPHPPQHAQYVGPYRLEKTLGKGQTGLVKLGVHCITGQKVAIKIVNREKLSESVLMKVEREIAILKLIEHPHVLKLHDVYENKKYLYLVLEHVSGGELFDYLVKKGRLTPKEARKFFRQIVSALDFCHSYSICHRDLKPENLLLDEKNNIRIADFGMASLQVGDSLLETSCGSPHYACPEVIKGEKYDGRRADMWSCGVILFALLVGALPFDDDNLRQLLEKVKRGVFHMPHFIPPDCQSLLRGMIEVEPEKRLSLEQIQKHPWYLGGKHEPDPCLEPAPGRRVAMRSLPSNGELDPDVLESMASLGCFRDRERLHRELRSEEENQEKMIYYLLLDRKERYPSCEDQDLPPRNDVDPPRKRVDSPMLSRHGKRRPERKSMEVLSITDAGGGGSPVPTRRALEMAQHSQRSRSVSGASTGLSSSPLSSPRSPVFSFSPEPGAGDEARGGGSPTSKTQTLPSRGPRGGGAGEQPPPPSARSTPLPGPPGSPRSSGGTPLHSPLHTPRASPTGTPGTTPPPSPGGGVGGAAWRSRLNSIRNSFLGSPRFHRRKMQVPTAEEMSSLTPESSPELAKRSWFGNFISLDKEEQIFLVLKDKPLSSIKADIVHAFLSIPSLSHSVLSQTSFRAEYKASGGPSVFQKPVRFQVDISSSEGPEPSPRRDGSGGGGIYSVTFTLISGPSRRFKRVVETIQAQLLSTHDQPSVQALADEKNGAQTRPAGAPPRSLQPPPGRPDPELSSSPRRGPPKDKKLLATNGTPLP
Chain of UniProt Q96NX5 (whole entry, looked up): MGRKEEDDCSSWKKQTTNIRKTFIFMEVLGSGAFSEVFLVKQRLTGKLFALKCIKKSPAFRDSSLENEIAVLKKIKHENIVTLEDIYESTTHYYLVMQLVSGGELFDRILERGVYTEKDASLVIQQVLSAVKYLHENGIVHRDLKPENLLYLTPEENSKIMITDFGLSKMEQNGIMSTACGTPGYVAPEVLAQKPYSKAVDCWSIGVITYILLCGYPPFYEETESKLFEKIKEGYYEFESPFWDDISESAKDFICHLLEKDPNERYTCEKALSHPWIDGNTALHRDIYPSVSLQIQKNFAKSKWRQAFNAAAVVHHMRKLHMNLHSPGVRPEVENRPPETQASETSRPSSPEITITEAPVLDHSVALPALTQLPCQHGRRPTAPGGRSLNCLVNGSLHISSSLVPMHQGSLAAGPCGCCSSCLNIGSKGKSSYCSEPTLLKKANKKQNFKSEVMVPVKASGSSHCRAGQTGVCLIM
Chain of UniProt Q8TD19 (whole entry, looked up): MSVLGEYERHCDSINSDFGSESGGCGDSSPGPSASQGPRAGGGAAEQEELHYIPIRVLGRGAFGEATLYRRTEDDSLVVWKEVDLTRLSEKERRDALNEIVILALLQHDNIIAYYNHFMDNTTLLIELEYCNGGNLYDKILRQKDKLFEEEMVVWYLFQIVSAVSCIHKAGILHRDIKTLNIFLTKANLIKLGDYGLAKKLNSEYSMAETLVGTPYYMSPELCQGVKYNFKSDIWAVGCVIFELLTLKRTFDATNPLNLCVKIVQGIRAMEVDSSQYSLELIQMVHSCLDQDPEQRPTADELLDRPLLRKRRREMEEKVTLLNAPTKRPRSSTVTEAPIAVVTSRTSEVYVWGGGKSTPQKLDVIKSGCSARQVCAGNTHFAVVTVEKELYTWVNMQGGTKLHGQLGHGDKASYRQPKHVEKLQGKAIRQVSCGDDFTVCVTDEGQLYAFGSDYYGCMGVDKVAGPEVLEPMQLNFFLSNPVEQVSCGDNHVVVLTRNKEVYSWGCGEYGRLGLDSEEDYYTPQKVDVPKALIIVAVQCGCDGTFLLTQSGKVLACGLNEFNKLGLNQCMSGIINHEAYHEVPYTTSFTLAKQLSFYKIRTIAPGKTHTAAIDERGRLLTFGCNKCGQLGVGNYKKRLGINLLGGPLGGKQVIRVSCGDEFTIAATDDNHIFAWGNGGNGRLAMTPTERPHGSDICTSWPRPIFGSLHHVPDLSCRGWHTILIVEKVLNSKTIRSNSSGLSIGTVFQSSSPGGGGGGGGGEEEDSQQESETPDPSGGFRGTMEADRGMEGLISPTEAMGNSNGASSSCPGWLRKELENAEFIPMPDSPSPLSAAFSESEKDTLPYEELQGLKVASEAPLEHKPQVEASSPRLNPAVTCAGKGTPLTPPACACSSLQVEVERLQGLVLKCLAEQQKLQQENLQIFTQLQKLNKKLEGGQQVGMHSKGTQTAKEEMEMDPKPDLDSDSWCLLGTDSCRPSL
Chain of UniProt P50613 (whole entry, looked up): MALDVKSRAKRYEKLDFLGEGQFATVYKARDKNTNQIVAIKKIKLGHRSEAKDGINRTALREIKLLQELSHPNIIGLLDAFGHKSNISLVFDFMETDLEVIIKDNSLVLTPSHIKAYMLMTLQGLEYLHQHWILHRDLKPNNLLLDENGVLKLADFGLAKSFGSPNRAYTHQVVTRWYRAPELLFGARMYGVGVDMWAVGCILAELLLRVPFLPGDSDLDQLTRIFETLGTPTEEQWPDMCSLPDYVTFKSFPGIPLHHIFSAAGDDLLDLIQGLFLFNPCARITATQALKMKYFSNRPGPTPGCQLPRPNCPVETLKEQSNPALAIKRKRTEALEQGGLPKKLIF

Series 1
SMILES: N/C(=N\[N+](=O)[O-])N/N=C\c1ccc(-c2cccc([N+](=O)[O-])c2)o1
Read-out: enzyme activity
Mode: inhibitor
Concentration: 0.5 µM
Reference: control
Measurement: remaining activity
BRSK1 (Homo sapiens, UniProt Q8TDC3): 97.2%
RET (Homo sapiens, UniProt P07949): 99.9%
CAMK1G (Homo sapiens, UniProt Q96NX5): 104%
CDK7 (Homo sapiens, UniProt P50613): 100%
NEK9 (Homo sapiens, UniProt Q8TD19): 91.8%

Series 2
Target: Kappa-type opioid receptor (OPRK1, Homo sapiens, UniProt P41145)
Chain of UniProt P41145 (whole entry, looked up): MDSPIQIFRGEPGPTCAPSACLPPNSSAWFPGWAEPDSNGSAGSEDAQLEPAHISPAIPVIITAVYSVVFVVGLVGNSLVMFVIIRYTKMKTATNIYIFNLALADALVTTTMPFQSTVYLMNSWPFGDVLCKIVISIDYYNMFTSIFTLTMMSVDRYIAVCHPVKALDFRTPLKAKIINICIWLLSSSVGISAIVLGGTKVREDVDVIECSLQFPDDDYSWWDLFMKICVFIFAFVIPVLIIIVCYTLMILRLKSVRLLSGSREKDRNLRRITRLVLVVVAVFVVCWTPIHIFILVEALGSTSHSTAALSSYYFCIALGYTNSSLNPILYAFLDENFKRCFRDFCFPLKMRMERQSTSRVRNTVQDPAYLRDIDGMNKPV
Read-out: ligand displacement
Concentration: 10 µM
Measurement: inhibition
CN(C)C(=O)c1sc2nc(N3CCC(S(C)(=O)=O)CC3)cc(C(F)(F)F)c2c1N: 9.53%
Cn1nc(C(=O)NCc2ccc(C(=O)O)cc2)cc1-c1ccc2[nH]ccc2c1: 16.8%
c1ccc(N2CCN(Cc3nc4ccccc4[nH]3)CC2)nc1: 45.1%
CN1CCN(c2cnc3c(C4CCN(C(=O)c5ccc(OC(F)(F)F)cc5N)CC4)ncnc3c2)CC1: 9.37%
O=C(NCCCC1CCCCC1)c1ccc(CNC(=O)c2cnn(-c3ccccc3)c2C(F)(F)F)cc1: 80.2%
Cc1c(NC(=O)c2cc(C(N)=O)nc3cc(F)ccc23)c(C(F)(F)F)nn1Cc1ccc(C#N)cc1: -6.9%
CCOc1ccc(S(=O)(=O)Nc2ccc(Cl)cc2C#Cc2cnc(C(=O)O)cc2OC)c2ncccc12: -10.8%
Cc1ccccc1Oc1cc(-n2c(=O)cc(C(F)(F)F)[nH]c2=O)c2ccccc2c1Cl: 37.5%
CC(=O)Nc1ncc(CN2CCC[C@H](Cc3cc(C)nc(C)c3)C2)s1: 75.1%
C[C@@H]1CN(c2cc(-c3n[nH]c4ccc(OC5(C)CC5)cc34)ncn2)C[C@H](C)O1: -0.6%
COc1cc(-c2cn(C3CCc4c(F)cccc4N(CC(F)(F)F)C3=O)nn2)ccc1-n1cnc(C)c1 (centres unmarked): 7.19%
Cn1cc(Cl)c2c(Oc3c(F)cc(Nc4cc(Cl)nc(N)n4)cc3F)ccnc21: 54.4%
C[C@H](c1ccc(F)cc1)N(Cc1cccc(C(=O)O)c1)C(=O)c1cnc2ccccc2c1: -17.8%

Series 3
Target: vanadate, free oxyanion
Method: microfluidic competitive inhibition
Matrix: in vitro, cell-free expressed
Concentration: not given
Setting: derived from inhibition constants, unchanged parent 676 nM
Reading: lower = stronger binding
Measurement: oxyanion analog dissociation constant
Starting sequence: PafA, mature enzyme, eGFP fusion (Elizabethkingia meningoseptica, UniProt Q9KJX5); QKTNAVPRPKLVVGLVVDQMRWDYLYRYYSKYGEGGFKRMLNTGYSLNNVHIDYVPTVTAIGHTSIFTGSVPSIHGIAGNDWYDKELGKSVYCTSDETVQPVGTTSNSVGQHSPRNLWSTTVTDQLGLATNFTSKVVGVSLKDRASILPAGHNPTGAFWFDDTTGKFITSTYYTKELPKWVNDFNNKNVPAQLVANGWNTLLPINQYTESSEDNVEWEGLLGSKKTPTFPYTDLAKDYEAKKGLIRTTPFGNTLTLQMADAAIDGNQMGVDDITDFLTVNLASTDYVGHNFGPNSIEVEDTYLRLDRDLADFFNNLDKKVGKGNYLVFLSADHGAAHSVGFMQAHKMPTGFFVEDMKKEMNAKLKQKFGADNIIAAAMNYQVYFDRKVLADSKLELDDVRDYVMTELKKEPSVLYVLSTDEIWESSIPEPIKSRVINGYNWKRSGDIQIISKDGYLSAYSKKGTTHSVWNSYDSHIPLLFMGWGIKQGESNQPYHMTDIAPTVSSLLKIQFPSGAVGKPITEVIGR
P249V: 639 nM
L87G: 542 nM
S474G: 664 nM
V353G: 886 nM
V353A: 904 nM
P114V: 645 nM
F351G: 590 nM
R144V: > 182 µM

Series 4
Cell line: HEK-293T/ACE2
Concentration: concentration not given
Time: 16 (unit not given)
Reference: vehicle
Measurement: viability
CC(C)(C)NC[C@H](O)COc1nsnc1N1CCOCC1: 101%
Nc1nc2ncc(CNc3ccc(C(=O)N[C@@H](CCC(=O)O)C(=O)O)cc3)nc2c(=O)[nH]1: 89.5%
CC(=O)Oc1ccccc1C(=O)O: 90.8%
CCOC(=O)CCC(=O)O[C@H]1[C@H](O[C@@H]2[C@@H](C)[C@H](O[C@H]3C[C@@](C)(OC)[C@@H](O)[C@H](C)O3)[C@@H](C)C(=O)O[C@H](CC)[C@@](C)(O)[C@H](O)[C@@H](C)C(=O)[C@H](C)C[C@@]2(C)O)O[C@H](C)C[C@@H]1N(C)C: 101%
CC(C)c1ccc2oc3nc(N)c(C(=O)O)cc3c(=O)c2c1: 99.4%

Single results of other studies
CC(C)C[C@H](CN)CC(=O)O — viability (A-375; 100 µM, 60 h): 101%

Repeated from above (series 2):
C[C@@H]1CN(c2cc(-c3n[nH]c4ccc(OC5(C)CC5)cc34)ncn2)C[C@H](C)O1: -0.6%
COc1cc(-c2cn(C3CCc4c(F)cccc4N(CC(F)(F)F)C3=O)nn2)ccc1-n1cnc(C)c1 (centres unmarked): 7.19%
Cn1cc(Cl)c2c(Oc3c(F)cc(Nc4cc(Cl)nc(N)n4)cc3F)ccnc21: 54.4%
